# Measured values collected from several papers.
# Protocols differ between the studies behind these lines. Values joined by “and” are separate records of one study, mostly repeats; a detail may differ. ± gives the spread as reported.
# UniProt A2AJ88, sequence (whole entry, looked up): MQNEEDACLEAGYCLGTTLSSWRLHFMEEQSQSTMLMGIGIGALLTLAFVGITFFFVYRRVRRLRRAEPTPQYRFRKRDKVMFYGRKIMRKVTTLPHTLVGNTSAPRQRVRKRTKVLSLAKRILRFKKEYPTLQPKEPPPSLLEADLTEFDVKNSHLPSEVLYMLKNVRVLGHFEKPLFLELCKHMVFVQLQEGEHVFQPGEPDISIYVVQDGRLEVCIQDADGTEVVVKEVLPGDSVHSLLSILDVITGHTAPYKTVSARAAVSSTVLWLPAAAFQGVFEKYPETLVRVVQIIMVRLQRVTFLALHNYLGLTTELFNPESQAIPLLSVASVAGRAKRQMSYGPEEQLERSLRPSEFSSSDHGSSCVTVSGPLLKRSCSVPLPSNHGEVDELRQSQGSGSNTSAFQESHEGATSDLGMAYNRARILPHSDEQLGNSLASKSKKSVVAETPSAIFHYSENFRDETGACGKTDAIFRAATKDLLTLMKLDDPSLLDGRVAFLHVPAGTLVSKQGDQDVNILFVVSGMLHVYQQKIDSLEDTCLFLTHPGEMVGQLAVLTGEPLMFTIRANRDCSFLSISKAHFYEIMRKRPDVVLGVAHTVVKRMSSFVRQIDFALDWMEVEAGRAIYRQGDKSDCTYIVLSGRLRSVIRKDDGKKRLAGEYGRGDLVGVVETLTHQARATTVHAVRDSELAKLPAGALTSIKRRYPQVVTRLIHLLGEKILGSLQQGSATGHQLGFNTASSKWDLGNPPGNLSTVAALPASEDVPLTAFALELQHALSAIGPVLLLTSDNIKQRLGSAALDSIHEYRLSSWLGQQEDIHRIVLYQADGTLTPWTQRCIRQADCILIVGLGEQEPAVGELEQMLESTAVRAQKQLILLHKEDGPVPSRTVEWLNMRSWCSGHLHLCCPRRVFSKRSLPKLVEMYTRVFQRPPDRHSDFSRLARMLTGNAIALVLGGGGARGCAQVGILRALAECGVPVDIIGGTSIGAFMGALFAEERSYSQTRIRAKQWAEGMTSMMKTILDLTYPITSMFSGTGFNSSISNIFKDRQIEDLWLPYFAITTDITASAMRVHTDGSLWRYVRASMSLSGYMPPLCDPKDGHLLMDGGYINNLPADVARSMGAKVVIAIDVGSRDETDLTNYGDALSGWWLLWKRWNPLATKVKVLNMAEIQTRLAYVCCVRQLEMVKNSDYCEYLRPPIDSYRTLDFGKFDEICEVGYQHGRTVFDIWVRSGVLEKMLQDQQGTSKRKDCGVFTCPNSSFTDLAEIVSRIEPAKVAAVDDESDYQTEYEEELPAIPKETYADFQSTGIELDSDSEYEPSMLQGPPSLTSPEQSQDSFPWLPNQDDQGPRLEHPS
# UniProt Q9UM07, sequence (whole entry, looked up): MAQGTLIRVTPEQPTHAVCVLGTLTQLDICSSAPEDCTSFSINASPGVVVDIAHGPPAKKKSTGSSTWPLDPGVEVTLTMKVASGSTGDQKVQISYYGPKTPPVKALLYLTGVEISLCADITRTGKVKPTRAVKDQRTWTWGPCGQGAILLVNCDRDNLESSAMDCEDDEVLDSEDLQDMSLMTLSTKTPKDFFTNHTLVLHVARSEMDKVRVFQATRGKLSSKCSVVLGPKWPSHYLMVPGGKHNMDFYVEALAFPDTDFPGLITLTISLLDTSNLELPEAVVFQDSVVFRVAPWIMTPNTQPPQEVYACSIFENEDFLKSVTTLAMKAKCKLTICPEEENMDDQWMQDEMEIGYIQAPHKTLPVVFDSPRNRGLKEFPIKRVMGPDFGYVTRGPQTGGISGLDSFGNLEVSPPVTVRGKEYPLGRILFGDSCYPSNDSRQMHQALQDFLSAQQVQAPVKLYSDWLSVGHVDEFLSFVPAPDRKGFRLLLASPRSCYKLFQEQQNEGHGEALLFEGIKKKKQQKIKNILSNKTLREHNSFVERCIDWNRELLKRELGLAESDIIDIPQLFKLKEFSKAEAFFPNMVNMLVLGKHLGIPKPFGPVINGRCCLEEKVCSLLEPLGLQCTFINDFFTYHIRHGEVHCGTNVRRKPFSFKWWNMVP
# UniProt Q56UN5, sequence (whole entry, looked up): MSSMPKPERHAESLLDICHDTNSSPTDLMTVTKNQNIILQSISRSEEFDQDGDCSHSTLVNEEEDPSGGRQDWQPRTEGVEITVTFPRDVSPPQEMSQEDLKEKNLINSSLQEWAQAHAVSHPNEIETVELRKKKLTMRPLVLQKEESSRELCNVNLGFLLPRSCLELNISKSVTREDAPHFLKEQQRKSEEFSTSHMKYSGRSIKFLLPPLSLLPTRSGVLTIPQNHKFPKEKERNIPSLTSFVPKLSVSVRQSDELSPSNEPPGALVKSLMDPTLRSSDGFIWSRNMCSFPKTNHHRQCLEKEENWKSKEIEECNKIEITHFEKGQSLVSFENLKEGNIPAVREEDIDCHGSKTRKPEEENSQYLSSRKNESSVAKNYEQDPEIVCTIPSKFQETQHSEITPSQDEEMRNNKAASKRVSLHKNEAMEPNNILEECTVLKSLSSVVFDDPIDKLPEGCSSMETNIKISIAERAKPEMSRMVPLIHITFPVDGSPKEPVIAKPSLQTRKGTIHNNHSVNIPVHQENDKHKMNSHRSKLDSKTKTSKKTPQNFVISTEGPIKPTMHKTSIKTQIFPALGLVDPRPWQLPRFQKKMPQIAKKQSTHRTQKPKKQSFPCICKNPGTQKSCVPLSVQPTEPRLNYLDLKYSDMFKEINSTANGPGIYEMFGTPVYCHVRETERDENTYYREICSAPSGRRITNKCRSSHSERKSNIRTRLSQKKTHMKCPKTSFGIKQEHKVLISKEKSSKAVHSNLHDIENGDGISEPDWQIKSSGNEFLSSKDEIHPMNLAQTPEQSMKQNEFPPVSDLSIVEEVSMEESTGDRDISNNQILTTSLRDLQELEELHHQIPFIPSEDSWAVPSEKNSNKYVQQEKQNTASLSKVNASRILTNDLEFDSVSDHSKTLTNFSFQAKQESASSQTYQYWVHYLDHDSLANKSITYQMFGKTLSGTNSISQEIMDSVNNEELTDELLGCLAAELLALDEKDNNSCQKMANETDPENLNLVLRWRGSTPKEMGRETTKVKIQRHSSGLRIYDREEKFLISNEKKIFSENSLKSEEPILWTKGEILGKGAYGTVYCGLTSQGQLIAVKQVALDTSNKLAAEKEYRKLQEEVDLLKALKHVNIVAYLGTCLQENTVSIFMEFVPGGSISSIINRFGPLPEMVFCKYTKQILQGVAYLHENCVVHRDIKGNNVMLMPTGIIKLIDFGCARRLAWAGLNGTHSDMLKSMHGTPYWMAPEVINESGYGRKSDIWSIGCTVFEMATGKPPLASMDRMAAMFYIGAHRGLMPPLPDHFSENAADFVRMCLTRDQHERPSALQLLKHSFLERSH
# UniProt Q13882, sequence (whole entry, looked up): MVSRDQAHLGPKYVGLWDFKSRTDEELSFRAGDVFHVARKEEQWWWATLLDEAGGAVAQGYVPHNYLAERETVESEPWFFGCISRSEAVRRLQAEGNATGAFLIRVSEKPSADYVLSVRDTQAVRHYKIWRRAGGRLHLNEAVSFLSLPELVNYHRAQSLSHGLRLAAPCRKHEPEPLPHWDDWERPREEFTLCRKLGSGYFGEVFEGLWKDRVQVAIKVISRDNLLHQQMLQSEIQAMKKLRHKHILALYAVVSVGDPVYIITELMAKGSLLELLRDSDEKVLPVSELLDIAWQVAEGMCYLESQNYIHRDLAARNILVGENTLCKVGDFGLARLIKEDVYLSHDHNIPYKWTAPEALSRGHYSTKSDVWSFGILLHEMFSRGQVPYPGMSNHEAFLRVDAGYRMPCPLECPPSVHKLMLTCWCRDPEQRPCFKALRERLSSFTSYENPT
# UniProt P08510, sequence (whole entry, unmodified, looked up): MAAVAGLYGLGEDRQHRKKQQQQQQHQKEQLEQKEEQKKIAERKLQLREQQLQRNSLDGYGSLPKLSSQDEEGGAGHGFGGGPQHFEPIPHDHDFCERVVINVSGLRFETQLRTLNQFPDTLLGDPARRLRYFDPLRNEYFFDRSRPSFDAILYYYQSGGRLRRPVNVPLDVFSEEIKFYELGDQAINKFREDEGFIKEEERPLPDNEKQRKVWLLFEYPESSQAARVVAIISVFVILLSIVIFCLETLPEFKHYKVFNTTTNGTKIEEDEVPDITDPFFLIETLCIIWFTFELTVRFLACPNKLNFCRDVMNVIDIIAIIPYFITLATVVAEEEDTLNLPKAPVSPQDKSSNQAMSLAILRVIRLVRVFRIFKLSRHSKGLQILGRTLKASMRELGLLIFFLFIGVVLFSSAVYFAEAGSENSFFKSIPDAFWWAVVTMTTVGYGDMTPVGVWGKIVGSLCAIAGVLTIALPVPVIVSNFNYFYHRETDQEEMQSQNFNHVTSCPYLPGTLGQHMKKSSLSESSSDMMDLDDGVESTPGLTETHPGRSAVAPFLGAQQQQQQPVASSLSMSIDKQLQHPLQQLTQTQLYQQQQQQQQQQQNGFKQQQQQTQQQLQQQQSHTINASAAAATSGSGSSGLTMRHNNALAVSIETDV
# UniProt P41145, sequence (whole entry, looked up): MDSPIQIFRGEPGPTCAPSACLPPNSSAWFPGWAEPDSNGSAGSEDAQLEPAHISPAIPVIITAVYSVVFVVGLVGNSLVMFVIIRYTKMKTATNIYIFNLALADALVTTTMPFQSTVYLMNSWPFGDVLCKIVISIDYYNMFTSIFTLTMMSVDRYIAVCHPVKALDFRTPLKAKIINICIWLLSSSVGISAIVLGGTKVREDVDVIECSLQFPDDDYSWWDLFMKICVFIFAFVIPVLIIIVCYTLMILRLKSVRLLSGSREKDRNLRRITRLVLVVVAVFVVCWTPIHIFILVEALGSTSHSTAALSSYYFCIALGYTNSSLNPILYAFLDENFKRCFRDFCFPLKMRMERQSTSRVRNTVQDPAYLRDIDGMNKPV
Structure (SMILES),target,assay,system,setting,how to read,measurement,result
CCCCC/C=C\C/C=C\C/C=C\C/C=C\CCCC(=O)NCCc1ccc(O)c(O)c1,"Transient receptor potential cation channel subfamily V member 1 (Trpv1, Mus musculus, UniProt Q704Y3, N552Q)","ion current, agonist, whole-cell patch clamp",,N552Q,relative to: 3 mM 2-APB,maximal open probability,0.82 ± 0.15
CC(C)Oc1ccc(B(O)O)c(F)n1,"Chymotrypsinogen A (Bos taurus, UniProt P00766)",pNA substrate hydrolysis,,,relative to: Ki protease over Ki AmpC,selectivity ratio,1680
CC(C)[C@H]1NC(=O)C[C@H]2/C=C/CCSSC[C@@H](NC1=O)C(=O)N[C@H](Cc1cccc3ccccc13)C(=O)NCC(=O)O2,"Tyrosine-protein kinase TXK (TXK, Homo sapiens, UniProt P42681)","enzyme activity, inhibitor",,10 µM,,inhibition,12.3%
O=C(O)C(/C=C/c1c(Cl)cccc1Cl)=N\Nc1nc(-c2ccc([N+](=O)[O-])cc2)cs1,"Acetylcholinesterase (ache, Electrophorus electricus, UniProt O42275)",Ellman,,,relative to: IC50 BChE over IC50 AChE,selectivity index,8.73
CC(=O)N[C@@H](CCC(N)=O)C(=O)N[C@@H](CC1CCCCC1)C(=O)N[C@@H](CNC(=O)CCl)C(=O)N[C@@H](CC(C)C)C(=O)N[C@@H](Cc1ccccc1)C(=O)O,"Beta sliding clamp (Escherichia coli, UniProt P0A988)","binding, isothermal titration calorimetry",,37 °C,,ΔG,-9.03 kcal/mol
CN(CC1CC1)[C@H]1COC[C@H]2NCCN(C(=O)Cc3ccc(Cl)c(Cl)c3)[C@@H]21 (relative stereo),"Kappa-type opioid receptor (OPRK1, Homo sapiens, UniProt P41145)",agonist,,0.3333 h,,Emax,79 ± 27%
N[C@H](C(=O)N1CCCC1)C1CCN(c2nccc3c(-c4ncc(Cl)cc4Cl)cccc23)CC1,"Protein-arginine deiminase type-4 (PADI4, Homo sapiens, UniProt Q9UM07)",enzyme activity,,"9.6 µM, high-affinity site, together with: Ca2+ 1.5 mM",,kcat,0.128 s⁻¹ and 0.182 s⁻¹
CS(C)(=O)=Nc1ccc(-c2ccc(-c3nc4cc(O[C@@H]5CO[C@H]6[C@@H]5OC[C@H]6O)[nH]c4cc3F)cc2)cc1,"Gamma-aminobutyric acid type B receptor subunit 1 (GABBR1, Homo sapiens, UniProt Q9UBS5)","agonist response, agonist",,10 µM,relative to: control agonist,activity,19.7%
O=C(N[C@@H]1c2ccccc2C[C@H]1N1CCCC1)c1ccc(-c2ccnc3[nH]ccc23)nc1,"Mitogen-activated protein kinase kinase kinase 19 (MAP3K19, Homo sapiens, UniProt Q56UN5)","binding, competition with immobilised ligand",,3 µM,,remaining binding,1.2%
Cc1ccc(N2CC3CCC(C2)N3C)cc1C(=O)N[C@H](C)c1cc(-c2cnn(C)c2)nc2ccccc12,"Ubiquitin carboxyl-terminal hydrolase 2 (USP2, Homo sapiens, UniProt O75604)",enzyme activity,,"10 µM, 0.5 h",,remaining activity,98.7%
CSCC[C@@H](N)C(=O)N[C@H](C)C(=O)N[C@H](C)C(=O)N[C@@H](C(=O)N[C@H](C)C(=O)NCC(=O)N[C@H](CC(C)C)C(=O)N[C@H](Cc1ccc(O)cc1)C(=O)NCC(=O)N[C@H](CC(C)C)C(=O)NCC(=O)N[C@H](CCC(=O)O)C(=O)N[C@H](CC(=O)O)C(=O)N[C@H](CCCNC(=N)N)C(=O)N[C@H](CCC(N)=O)C(=O)N[C@H](Cc1c[nH]cn1)C(=O)N[C@H](CCCNC(=N)N)C(=O)N[C@H](CCCCN)C(=O)N[C@H](CCCCN)C(=O)N[C@H](CCC(N)=O)C(N)=O)C(C)C,"Sh, DEL6-46 (Drosophila melanogaster, UniProt P08510)","ion current, blocker, inside-out patch clamp",,+30 mV,,Hill coefficient,0.92
CN(C)[C@H]1C[C@@]23CC[C@@]4(O2)C(=CC[C@]2(C)[C@@H](c5ccc6ccncc6c5)CC[C@H]24)C=C3[C@@H](O)[C@@H]1O,"STE20-related kinase adapter protein alpha (STRADA, Homo sapiens, UniProt Q7RTN6)","ATP probe labelling, inhibitor, KiNativ profiling",,0.1 µM,,inhibition,-6.6%
O=C(N1CCCCC1)n1ccnn1,"Patatin-like phospholipase domain-containing protein 7 (Pnpla7, Mus musculus, UniProt A2AJ88)","probe labelling, inhibitor, competitive ABPP-SILAC, measured: Pnpla7",mouse T cells,"concentration not given, 4 h, in situ, single peptide","relative to: treated over DMSO, lower = more inhibition",SILAC ratio,0.8 and 0.68 and 0.9 and 0.82 and 1.03 and 0.97 and 0.87 and 0.78
O=C1NC(=O)c2c1c1cc(F)c[n+]3c1c1c2c2cc(O)ccc2[n]1[Ru-4]312([N]=C=S)[S+]3CC[S+]1CC[S+]2CC3 (centres unmarked),"Protein-tyrosine kinase 6 (PTK6, Homo sapiens, UniProt Q13882)",enzyme activity,,"100 nM, human enzyme, together with: 10 µM ATP",relative to: untreated,remaining activity,110%

# For quick reference, copied from above:
Structure (SMILES),target,assay,system,setting,how to read,measurement,result
CN(C)[C@H]1C[C@@]23CC[C@@]4(O2)C(=CC[C@]2(C)[C@@H](c5ccc6ccncc6c5)CC[C@H]24)C=C3[C@@H](O)[C@@H]1O,"STE20-related kinase adapter protein alpha (STRADA, Homo sapiens, UniProt Q7RTN6)","ATP probe labelling, inhibitor, KiNativ profiling",,0.1 µM,,inhibition,-6.6%
O=C(N1CCCCC1)n1ccnn1,"Patatin-like phospholipase domain-containing protein 7 (Pnpla7, Mus musculus, UniProt A2AJ88)","probe labelling, inhibitor, competitive ABPP-SILAC, measured: Pnpla7",mouse T cells,"concentration not given, 4 h, in situ, single peptide","relative to: treated over DMSO, lower = more inhibition",SILAC ratio,0.8 and 0.68 and 0.9 and 0.82 and 1.03 and 0.97 and 0.87 and 0.78
